Results of several laboratories.
Organism: Bacillus subtilis

CC[C@H](C)[C@H](NC(=O)CNC(=O)[C@H](CC(N)=O)NC(=O)[C@H](CCCNC(=N)N)NC(=O)[C@H](CS)NC(=O)[C@H](CCCNC(=N)N)NC(=O)CNC(=O)CNC(=O)[C@H](CCCCN)NC(=O)[C@H](Cc1ccc(O)cc1)NC(=O)[C@H](CCCNC(=N)N)NC(=O)[C@H](CCCCN)NC(=O)[C@@H](NC(=O)[C@H](CC(C)C)NC(=O)[C@H](CS)NC(=O)[C@H](Cc1c[nH]cn1)NC(=O)[C@H](C)NC(=O)[C@H](C)NC(=O)[C@H](CS)NC(=O)[C@H](C)NC(=O)[C@H](CO)NC(=O)[C@H](Cc1c[nH]cn1)NC(=O)[C@H](CC(N)=O)NC(=O)[C@H](CC(C)C)NC(=O)[C@H](CO)NC(=O)CNC(=O)[C@H](Cc1c[nH]c2ccccc12)NC(=O)[C@@H]1CCCN1C(=O)[C@@H](NC(=O)[C@H](CO)NC(=O)[C@H](C)NC(=O)[C@H](CO)NC(=O)[C@H](CC(C)C)NC(=O)[C@H](CC(C)C)NC(=O)[C@H](CC(=O)O)NC(=O)[C@H](CS)NC(=O)[C@@H](NC(=O)[C@H](C)N)[C@@H](C)O)[C@@H](C)O)[C@@H](C)O)C(=O)N[C@@H](CS)C(=O)N[C@@H](CCCNC(=N)N)C(=O)N[C@@H](CS)C(=O)N[C@@H](CCCNC(=N)N)C(=O)N[C@@H](CCCNC(=N)N)C(N)=O  MIC: 7 µg/mL
CC(C)C[C@@H]1NC(=O)CSC[C@@H]2NC(=O)[C@H](CC(C)C)NC(=O)[C@H](CCCCN)NC(=O)[C@H](CCCCN)NC(=O)[C@H](CCCCNC(=O)[C@H](CCCCN)NC(=O)[C@H](CC(C)C)NC1=O)NC(=O)[C@H](CCCCN)NC(=O)[C@H](CC(C)C)NC(=O)[C@H](CC(C)C)NC(=O)CSC[C@@H](C(=O)N[C@@H](CCCCN)C(N)=O)NC(=O)[C@H](CC(C)C)NC(=O)[C@H](CC(C)C)NC(=O)[C@H](CC(C)C)NC2=O  MIC (BR 151; 18 h): 16 µg/mL
CC[C@@H](C)[C@H]1NC(=O)[C@H]([C@@H](C)CC)NC(=O)[C@@H](CCCN)NC(=O)[C@@H](NC(=O)[C@@H](NC(=O)[C@@H](CCC(=O)O)NC(=O)[C@H](CC(C)C)NC(=O)[C@@H]2CSC([C@@H](N)[C@@H](C)CC)=N2)[C@@H](C)CC)CCCCNC(=O)[C@H](CC(N)=O)NC(=O)[C@@H](CC(=O)O)NC(=O)[C@H](Cc2c[nH]cn2)NC1=O  MIC (168; 18 h, 37 °C, added: ZnSO4 0.3 mM): 64 µg/mL
CC[C@H](C)[C@H](NC(=O)[C@@H](Cc1ccccc1)NC)C(=O)N[C@@H](CO)C(=O)N[C@H](CCC(N)=O)C(=O)N[C@@H](C(=O)N[C@H](C(=O)N[C@@H](CO)C(=O)N[C@H]1C(=O)N[C@@H](C)C(=O)N[C@@H](C2CCCCC2)C(=O)N[C@@H]([C@@H](C)CC)C(=O)O[C@H]1C)[C@@H](C)CC)[C@@H](C)CC  MIC (broth microdilution; ATCC 6051, Mueller-Hinton broth; 16 h, 37 °C): 0.125 µg/mL
CC(C)C[C@H](NC(=O)[C@H](CC(C)C)NC(=O)[C@H](CCCCN)NC(=O)CNC(=O)[C@H](CC(C)C)NC(=O)[C@H](CC(C)C)NC(=O)[C@H](CO)NC(=O)[C@H](CC(C)C)NC(=O)[C@H](CC(C)C)NC(=O)[C@H](CO)NC(=O)[C@H](CC(C)C)NC(=O)[C@H](CC(C)C)NC(=O)CN)C(N)=O  MIC (broth microdilution): > 120 µM
CN1C(=O)[C@@H]2NC(=O)[C@@H]3NC(=O)[C@@H](c4ccc(O)cc4)NC(=O)[C@H](NC(=O)C(NCc4ccc(O)c(O)c4O)c4ccc(O)cc4)Cc4c[nH]c5cc(ccc45)-c4cc3cc(c4O)Oc3ccc(cc3)C[C@H]1C(=O)N[C@@H](C(=O)O)c1ccc(O)c(c1)Oc1ccc2cc1 (some centres unmarked)  MIC (168, Mueller-Hinton broth): 4 µg/mL
CCCCCCCCCCCCCc1cc(O)cc(O)c1  MIC (microbial growth, broth dilution; 168): 1 to 8 µg/mL
CC(C)C[C@H](NC(=O)[C@@H]1CSCC(=O)N[C@@H](CCCCN)C(=O)N[C@@H](CC(C)C)C(=O)N[C@@H](CC(C)C)C(=O)N[C@H]2CCCCNC(=O)[C@H](CC(C)C)NC(=O)[C@H](CC(C)C)NC(=O)[C@H](CCCCN)NC(=O)CSC[C@H](NC(=O)[C@H](CC(C)C)NC(=O)[C@H](CC(C)C)NC(=O)[C@H](CCCCN)NC2=O)C(=O)N[C@@H](CCCCN)C(=O)N[C@@H](CCCCN)C(=O)N[C@@H](CCCCN)C(=O)N1)C(N)=O  MIC (BR 151; 18 h): 16 µg/mL
CC[C@H](C)[C@@H]1NC(=O)CNC(=O)[C@H](CCCCN)NC(=O)[C@H](C)NC(=O)[C@H](CCC(=O)O)NC(=O)[C@H](Cc2ccccc2)NC(=O)[C@H](CO)NC(=O)[C@H](CC(C)C)NC(=O)[C@H](C(C)C)NC(=O)[C@H](CC(=O)O)NC(=O)[C@@H](NC(=O)[C@@H](NC(=O)[C@@H](N)C(C)C)[C@@H](C)O)CSSC[C@@H]2NC(=O)[C@H](CO)NC(=O)CNC(=O)CNC(=O)[C@H](CCCCN)NC(=O)[C@H](CCCCN)NC(=O)[C@H](CCCNC(=N)N)NC(=O)[C@H](CC(C)C)NC(=O)[C@H](C)NC(=O)[C@H]([C@@H](C)CC)NC(=O)[C@H](C)NC(=O)[C@H](Cc3c[nH]cn3)NC(=O)[C@H](CC(C)C)NC(=O)[C@H](C)NC(=O)[C@H](CSSC[C@@H](C(=O)N[C@H](C(=O)N[C@@H](C)C(=O)N[C@@H](CCCNC(=N)N)C(=O)N[C@@H](CC(N)=O)C(=O)O)C(C)C)NC(=O)[C@H](C(C)C)NC(=O)CNC(=O)[C@H](CC(N)=O)NC(=O)[C@H](CCC(N)=O)NC2=O)NC(=O)[C@H](C)NC(=O)[C@H](CO)NC(=O)[C@H](Cc2c[nH]cn2)NC(=O)[C@H](CC(N)=O)NC(=O)[C@H](C(C)C)NC(=O)[C@H](C)NC1=O  MIC (broth microdilution; KCTC 3068; 16 h, 37 °C): > 100 µM
CC[C@H](C)[C@H](NC(=O)[C@H](CCCN)NC(=O)[C@H](CC(N)=O)NC(=O)[C@H](CC(C)C)NC(=O)[C@H](Cc1ccccc1)NC(=O)[C@H](CCCN)NC(=O)[C@H](CCCNC(=N)N)NC(=O)[C@H](CC(C)C)NC(=O)[C@H](CC(C)C)NC(=O)[C@H](CCCN)NC(=O)[C@H](CCCNC(=N)N)NC(=O)[C@H](CC(C)C)NC(=O)CNC(C)=O)C(=O)N[C@@H](CCCN)C(=O)N[C@@H](CCCNC(=N)N)C(N)=O  MIC (broth microdilution; ATCC 6633): 3.12 µM
CC(C)C[C@H](NC(=O)[C@@H]1CSCC(=O)N[C@H]2CCCCNC(=O)CSC[C@H](NC(=O)[C@H](CCCCN)NC2=O)C(=O)N[C@@H](CCCCN)C(=O)N[C@@H](CC(C)C)C(=O)N1)C(N)=O  MIC (BR 151; 18 h): > 256 µg/mL
CN1C(=O)[C@@H]2NC(=O)[C@@H]3NC(=O)[C@@H](c4ccc(O)cc4)NC(=O)[C@H](NC(=O)C(NCc4cc(C(F)(F)F)cc(C(F)(F)F)c4)c4ccc(O)cc4)Cc4c[nH]c5cc(ccc45)-c4cc3cc(c4O)Oc3ccc(cc3)C[C@H]1C(=O)N[C@@H](C(=O)O)c1ccc(O)c(c1)Oc1ccc2cc1 (some centres unmarked)  MIC (168, Mueller-Hinton broth): 8 µg/mL
CC(C)C[C@@H]1NC(=O)[C@H](CC(C)C)NC(=O)[C@H](CCCCN)NC(=O)CSC[C@@H](C(=O)N[C@@H](CCCCN)C(N)=O)NC(=O)[C@H](CCCCN)NC(=O)[C@H](CC(C)C)NC(=O)[C@H](CCCCN)NC(=O)[C@@H]2CSCC(=O)N[C@@H](CCCCN)C(=O)N[C@@H](CC(C)C)C(=O)N[C@@H](CC(C)C)C(=O)N[C@@H](CCCCNC1=O)C(=O)N[C@@H](CCCCN)C(=O)N[C@@H](CC(C)C)C(=O)N[C@@H](CC(C)C)C(=O)N2  MIC (BR 151; 18 h): 1 µg/mL
Cc1cc(C)c(SCC2OC(OC3C(N)CC(N)C(OC4OC(CN)C(O)CC4N)C3O)C(O)C(N)C2O)c(C)c1 (centres unmarked)  MIC (168): 18.8 µg/mL

Excerpt of the above:
CC[C@H](C)[C@@H]1NC(=O)CNC(=O)[C@H](CCCCN)NC(=O)[C@H](C)NC(=O)[C@H](CCC(=O)O)NC(=O)[C@H](Cc2ccccc2)NC(=O)[C@H](CO)NC(=O)[C@H](CC(C)C)NC(=O)[C@H](C(C)C)NC(=O)[C@H](CC(=O)O)NC(=O)[C@@H](NC(=O)[C@@H](NC(=O)[C@@H](N)C(C)C)[C@@H](C)O)CSSC[C@@H]2NC(=O)[C@H](CO)NC(=O)CNC(=O)CNC(=O)[C@H](CCCCN)NC(=O)[C@H](CCCCN)NC(=O)[C@H](CCCNC(=N)N)NC(=O)[C@H](CC(C)C)NC(=O)[C@H](C)NC(=O)[C@H]([C@@H](C)CC)NC(=O)[C@H](C)NC(=O)[C@H](Cc3c[nH]cn3)NC(=O)[C@H](CC(C)C)NC(=O)[C@H](C)NC(=O)[C@H](CSSC[C@@H](C(=O)N[C@H](C(=O)N[C@@H](C)C(=O)N[C@@H](CCCNC(=N)N)C(=O)N[C@@H](CC(N)=O)C(=O)O)C(C)C)NC(=O)[C@H](C(C)C)NC(=O)CNC(=O)[C@H](CC(N)=O)NC(=O)[C@H](CCC(N)=O)NC2=O)NC(=O)[C@H](C)NC(=O)[C@H](CO)NC(=O)[C@H](Cc2c[nH]cn2)NC(=O)[C@H](CC(N)=O)NC(=O)[C@H](C(C)C)NC(=O)[C@H](C)NC1=O  MIC (broth microdilution; KCTC 3068; 16 h, 37 °C): > 100 µM
CC[C@H](C)[C@H](NC(=O)[C@H](CCCN)NC(=O)[C@H](CC(N)=O)NC(=O)[C@H](CC(C)C)NC(=O)[C@H](Cc1ccccc1)NC(=O)[C@H](CCCN)NC(=O)[C@H](CCCNC(=N)N)NC(=O)[C@H](CC(C)C)NC(=O)[C@H](CC(C)C)NC(=O)[C@H](CCCN)NC(=O)[C@H](CCCNC(=N)N)NC(=O)[C@H](CC(C)C)NC(=O)CNC(C)=O)C(=O)N[C@@H](CCCN)C(=O)N[C@@H](CCCNC(=N)N)C(N)=O  MIC (broth microdilution; ATCC 6633): 3.12 µM
